Assay results collected from several papers.
Numbered parts are unrelated; each lists some results of a single study.

Block 1
Target: Ras GTPase-activating protein-binding protein 1, full length (G3BP1, Homo sapiens, UniProt Q13283)
Sequence of UniProt Q13283 (whole entry, looked up): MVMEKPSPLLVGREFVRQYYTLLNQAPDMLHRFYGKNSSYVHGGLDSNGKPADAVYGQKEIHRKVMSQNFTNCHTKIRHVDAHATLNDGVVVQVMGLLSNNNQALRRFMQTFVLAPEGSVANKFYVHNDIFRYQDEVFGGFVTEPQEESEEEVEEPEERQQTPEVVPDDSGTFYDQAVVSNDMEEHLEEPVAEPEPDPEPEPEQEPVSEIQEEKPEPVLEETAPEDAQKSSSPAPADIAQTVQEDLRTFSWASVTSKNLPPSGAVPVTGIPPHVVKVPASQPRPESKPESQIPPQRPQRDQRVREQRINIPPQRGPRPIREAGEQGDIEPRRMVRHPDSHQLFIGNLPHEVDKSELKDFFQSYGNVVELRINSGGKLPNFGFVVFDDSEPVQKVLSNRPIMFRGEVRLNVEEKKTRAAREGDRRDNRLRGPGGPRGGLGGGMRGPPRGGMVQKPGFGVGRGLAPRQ
Technique: RNA Bind-n-Seq
Molecule type: RNA
Sample: in vitro
Concentration: 200 nM
Setting: whole 134-nt RNA, ends assumed
Together with: 150 mM LiCl
Relative to: input library
Direction: higher = stronger binding
Endpoint: log2 enrichment
Library: 7-deaza-guanosine replaces G
Constant ends, left off below: GGGAGUUCUACAGUCCGACGAUC … UGGAAUUCUCGGGUGUCAAGG
UCCUCAAGUCCUGUGCUACACAUCGUAUGUACCGAAUCGGUGGGUGGUGGGAAAGUAUUAUGUUACGCCGUUCGGAUCUGCACUUCCAGC: 0.485
UGGACAUGGAUUUUCAAGCCUACUUAGCUUCCUCUAGUGAAGAUGAAGAGGAGAUAGAAGAGGAGCUACAAGGUAUUGUUAAUCUUUCAG: -1.76
UGGGAGGUGGAUUUUGUUUAUUUUUUUAGCUCAUUUCCAGGGGUGGGAAUUUUUUUUUAAUAUGUGUCAUGAAUAAAGUUGAUUUUGAAA: -0.187
GCAGGAAGUAAAAACAAAUGGAAAUGCUUCGGAUAGUGGCAGGGGUGGGGGAUGCUAAGGAAAGGGUGGGAUGGGAGUGGGUAAAGAGUU: -0.318
AAGUCCUGUGCUACACAUCGUAUGUACCGAAUCGGGUUUUUGGGAAAGGGAAAGGGAAAGUAUUAUGUUACGCCGUUCGGAUCUGCACUU: -0.22
CUCAAGUCCUGUGCUACACAUCGUAUGUACCGAAUCGGUGGAGGUUUUUUUGGAAAGUAUUAUGUUACGCCGUUCGGAUCUGCACUUCCA: 0.416
UGGGAGGUGGAUUUUGUUUAUUUUUUUAGCUCAUUUCCAGGGGUGGGAAUUUUUUUUUAAUAUGUGUCACGAAUAAAGUUGUUUUUGAAA: 0.0838
AGUCCUGUGCUACACAUCGUAUGUACCGAAUCAAACCCAAACCCCCCCAAACCCAAAAAAGUAUUAUGUUACGCCGUUCGGAUCUGCACU: 0.395

Block 2
Target: RNA binding protein fox-1 homolog 2, RRM domain, GST-SBP tag (RBFOX2, Homo sapiens, UniProt O43251-10, residues 100-194)
Technique: RNA Bind-n-Seq
Molecule type: RNA
Sample: in vitro
Concentration: 365 nM
Setting: natural RNA segment, single round, ends assumed
Relative to: no-protein control
Direction: higher = stronger binding
Endpoint: RBNS enrichment (R)
Constant ends, left off below: GGGAGUUCUACAGUCCGACGAUC … UGGAAUUCUCGGGUGCCAA
GCAGACGCGCAGGCCCCACCUGGCCUCCUGAAUCAAAAUGGUGUGCGGCAGGGUGCAGCGAGCUGUUUUCACGAGGCCUCCAGGUGACUGGAUGUAAGCUUGCUUGAGAA: 0.516
CCGUGCCCGCUGACUGUCUGGGCAGCCUUGCAGUGGGGGCUGAUGUGCUGUCUUAUUUUUGCUGUCACAAUUUGUAAACUCAGUGUGACUUCUAUAUGAGUGUUUUAACC: 0.944
UUAGCCAGUCUGCUGUCCUGAAACCCAGAAGUGAUGGAGAGAAACCAACAAGAGAUCUCGAACCCUGUCUAGAAGGAAUGUAUUUGUUGCUAAAUUUCGUAGCACUGUUU: 0.676
UGGUGAGGAGAAGUCGCCAUUGAGCACACAACCUCCACCAGACUGCCAUGGCCCCGAACCUGCAAUUCCAUCCUAGCGCAGAAGCAUGUGCCUGCCACCUGCUGCCCCUG: 8.86
UGGGAAGCGCUGGGGUACAAAGAAAAUGCAAAUGUUCAAUGCAAGAUGUCUGUCUCCUUGCGUGUAGAUCCCAAAAGUGCUCUUCAGGGGUUCUGUGCUAGCUGAUGCAA: 0.364
UAGGUCUGCAUUGGAAAUGACUAUUAAUUUGUAAAGAAGUAAGUUUUAUUAAACACUGUCUAGAAAAAGAAAGUGAAGCUGAGAACUCUUCCUUUAUUGUGCAUUUAUAU: 1.81
UUAAUUUAUGUCUGGAGCCUGGCUACUCUGCAUUUGGGAUUGGGGAUGCUGGGUGGGUGUGUGGUCCAUGUUCAGCGUUCUAGCAACACGUGUGUGUGUGUGUGUGUAAA: 2.81
CUGGGAGGAGGCUGAGGCCUGUGAAGCCAAACAAUAUGCUCCUGCCUUGCACCUCCAAUAGGUUUUAUUAUUUUUUUUAAAUUAAUGAACAUAUGUAAUAUUAAUAGUUA: 0.807

Block 3
Target: Sal-like protein 4, full length isoform B (SALL4, Homo sapiens, UniProt Q9UJQ4-2, residues 1-616)
Technique: universal PBM
Molecule type: double-stranded DNA, one strand shown
Sample: in vitro
Concentration: not given
Setting: 8-mer, flanks averaged, mean of replicates
Direction: higher = stronger binding
Endpoint: E-score
CTTCTTCC: -0.137
AAGGTGTG: -0.0167
ACGTTATC: 0.0719
CACCCGTA: -0.121
ATTATACC: 0.311
GCAGACCC: -0.32
ATCAATTG: 0.249
CTGTATCA: 0.00492
GGGTAAAC: -0.0101
ACCAAATG: -0.0132
AGCATATC: 0.072
CCCCTTGC: -0.276
GTAAAAAC: 0.25
CGAATACA: 0.12
GGGGTACC: -0.305
TAAGCCGA: 0.0454
ATAAGGTC: 0.162
CCGTCACC: -0.181
CTACTATC: 0.101

Block 4
Target: Centromere-binding protein 1, full length, N-terminal tag (CBF1, Saccharomyces cerevisiae, UniProt P17106, residues 1-351)
Sequence of UniProt P17106 (whole entry, looked up): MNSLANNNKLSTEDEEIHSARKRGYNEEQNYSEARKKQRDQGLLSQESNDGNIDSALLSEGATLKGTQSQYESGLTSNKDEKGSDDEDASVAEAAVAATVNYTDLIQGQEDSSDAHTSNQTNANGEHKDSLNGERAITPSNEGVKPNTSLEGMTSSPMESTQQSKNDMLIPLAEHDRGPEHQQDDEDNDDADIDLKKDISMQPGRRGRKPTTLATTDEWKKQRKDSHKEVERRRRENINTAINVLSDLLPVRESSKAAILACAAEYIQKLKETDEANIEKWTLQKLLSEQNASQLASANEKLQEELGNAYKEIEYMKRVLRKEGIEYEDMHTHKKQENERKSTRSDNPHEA
Technique: protein-binding microarray
Molecule type: double-stranded DNA, one strand shown
Sample: in vitro
Concentration: 0.8 µM
Setting: whole 60-bp probe, no competitor
Direction: higher = stronger binding
Endpoint: fluorescence intensity
Constant ends, left off below: … GTCTTGATTCGCTTGACGCTGCTG
GAAGGTAGTAGTACTAACATCAGTAAAAGTAACTAG: 505 a.u.
GAACTAGGAAAAGATGGTGACGCCGTTTATCTGTAG: 515 a.u.
GAATTTGGAGTTAGGGTTGTGATCATTGACGATTAG: 556 a.u.
TGTACGAAGCTATCTGACGTCAATATAGTAGTTAGG: 506 a.u.
GAACGTGAAAATTGTAACACCACCTTGAAGTGCTAG: 518 a.u.
CTACTACCACACTTTCATGTGATGAAACGTGAATTC: 839 a.u.
GAAAATAGTTAGGTGCTCGTGACAAACCTTTTTTAG: 1330 a.u.
CTACATCTCTTCTTCATCACCACGATGTATCTTTTC: 573 a.u.
CTAGTCGTCGTACGTGATGAGGGCAGGCTTGAATTC: 552 a.u.
CCTAACTACTATACACACATGCTATAGCTTCGTACA: 574 a.u.
CTATCGAATAAATATCACATGTAACTTGAAGGTTTC: 1790 a.u.
CCTAACTACTATAATCATGTCATATAGCTTCGTACA: 548 a.u.
CCTAACTACTATACCCACATCACATAGCTTCGTACA: 538 a.u.
GAACTATGCTAACATGATGCCACTACGTTTGTGTAG: 514 a.u.
TGTACGAAGCTATAACTGGTGGTTATAGTAGTTAGG: 508 a.u.
CTAAACACGAGATATTGCATGACCTCCACACACTTC: 632 a.u.
CTAATATAAATGGGCCTGATGTTCGTTAAAAGCTTC: 527 a.u.
CTATGATCTTGTATTCATGTGATTGTAAATAATTTC: 1560 a.u.
GAAATAAGTTCGCAGCATGTGGATTCAAGTCCATAG: 550 a.u.

A few entries again (block 2):
CUGGGAGGAGGCUGAGGCCUGUGAAGCCAAACAAUAUGCUCCUGCCUUGCACCUCCAAUAGGUUUUAUUAUUUUUUUUAAAUUAAUGAACAUAUGUAAUAUUAAUAGUUA: 0.807
UUAGCCAGUCUGCUGUCCUGAAACCCAGAAGUGAUGGAGAGAAACCAACAAGAGAUCUCGAACCCUGUCUAGAAGGAAUGUAUUUGUUGCUAAAUUUCGUAGCACUGUUU: 0.676
GCAGACGCGCAGGCCCCACCUGGCCUCCUGAAUCAAAAUGGUGUGCGGCAGGGUGCAGCGAGCUGUUUUCACGAGGCCUCCAGGUGACUGGAUGUAAGCUUGCUUGAGAA: 0.516
UGGGAAGCGCUGGGGUACAAAGAAAAUGCAAAUGUUCAAUGCAAGAUGUCUGUCUCCUUGCGUGUAGAUCCCAAAAGUGCUCUUCAGGGGUUCUGUGCUAGCUGAUGCAA: 0.364
UAGGUCUGCAUUGGAAAUGACUAUUAAUUUGUAAAGAAGUAAGUUUUAUUAAACACUGUCUAGAAAAAGAAAGUGAAGCUGAGAACUCUUCCUUUAUUGUGCAUUUAUAU: 1.81
